Assay results from different studies.
A part holds a random share of what one study measured.

Series 1
Target: Cyclic AMP-responsive element-binding protein 1, full length (CREB1, Homo sapiens, UniProt P16220, residues 1-327)
Sequence of UniProt P16220 (whole entry, looked up): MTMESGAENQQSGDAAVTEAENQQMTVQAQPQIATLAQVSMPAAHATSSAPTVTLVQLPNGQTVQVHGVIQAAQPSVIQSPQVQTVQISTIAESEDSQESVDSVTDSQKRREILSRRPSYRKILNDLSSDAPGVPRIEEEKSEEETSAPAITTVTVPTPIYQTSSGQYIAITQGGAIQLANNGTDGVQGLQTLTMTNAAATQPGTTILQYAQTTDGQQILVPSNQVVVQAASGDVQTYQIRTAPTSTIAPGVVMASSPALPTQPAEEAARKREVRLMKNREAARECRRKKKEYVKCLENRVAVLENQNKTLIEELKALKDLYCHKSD
Method: protein-binding microarray
Molecule type: hairpin DNA
Sample: in vitro
Tested at: not given
Setting: whole hairpin DNA, median over replicate spots
Baseline: not given
Direction: higher = stronger binding
Measurement: median fluorescence
GAGGCCGACGACGTCCGGCCTCCTGGCCGGACGTCGTCGGCCTCACACTC (5mC at 9 15 16 28 35): 3090 a.u.
GAGGCCGGATGACGTCAGCCTCCTGGCTGACGTCATCCGGCCTCACACTC (5mC at 34): 7150 a.u.
GAGGCCGGCTGACGTCAGCCTCCTGGCTGACGTCAGCCGGCCTCACACTC: 13800 a.u.
GAGGCCGACGAGGTCGTGCCTCCTGGCACGACCTCGTCGGCCTCACACTC (5mC at 9 15 29 33 35): 2530 a.u.
GAGGCCGACGACCGCGTGCCTCCTGGCACGCGGTCGTCGGCCTCACACTC (5mC at 9 13 15 29 35): 2840 a.u.
GAGGCCGGATGACGTCCGCCTCCTGGCGGACGTCATCCGGCCTCACACTC: 7700 a.u.
GAGGCCCGATGACGTCAGCCTCCTGGCTGACGTCATCGGGCCTCACACTC (5mC at 7 37): 26700 a.u.
GAGGCCGGCTGACCTCAGCCTCCTGGCTGAGGTCAGCCGGCCTCACACTC (5mC at 14): 2350 a.u.
GAGGCCGGCTGACGTCAGCCTCCTGGCTGACGTCAGCCGGCCTCACACTC (5mC at 9): 12900 a.u.
GAGGCCGGCTGACCGCAGCCTCCTGGCTGCGGTCAGCCGGCCTCACACTC: 2790 a.u.
GAGGCCGGATGAGGTCAGCCTCCTGGCTGACCTCATCCGGCCTCACACTC: 3180 a.u.
GAGGCCGGACGACGTCAGCCTCCTGGCTGACGTCGTCCGGCCTCACACTC (5mC at 10): 9660 a.u.
GAGGCCCGCTGACGTCAGCCTCCTGGCTGACGTCAGCGGGCCTCACACTC (5mC at 7): 15800 a.u.
GAGGCCGGCTGACGTCAGCCTCCTGGCTGACGTCAGCCGGCCTCACACTC (5mC at 13 31): 2760 a.u.
GAGGCCGGCTGACATCAGCCTCCTGGCTGATGTCAGCCGGCCTCACACTC: 3730 a.u.
GAGGCCGGATGACCTCAGCCTCCTGGCTGAGGTCATCCGGCCTCACACTC: 3140 a.u.
GAGGCCGCGGACGTCGTGCCTCCTGGCACGACGTCCGCGGCCTCACACTC (5mC at 8 15 29 35 36): 3340 a.u.
GAGGCCAGATGACGTCAGCCTCCTGGCTGACGTCATCTGGCCTCACACTC: 20600 a.u.
GAGGCCGGATGACGCGAGCCTCCTGGCTCGCGTCATCCGGCCTCACACTC (5mC at 15 29): 12200 a.u.
GAGGCCGGCTGGCGTCAGCCTCCTGGCTGACGCCAGCCGGCCTCACACTC: 3360 a.u.
GAGGCCGACGAAGTCGTGCCTCCTGGCACGACTTCGTCGGCCTCACACTC (5mC at 9 15 29 35): 2470 a.u.
GAGGCCGGACGACGTCAGCCTCCTGGCTGACGTCGTCCGGCCTCACACTC (5mC at 34): 4240 a.u.
GAGGCCGACGACGGCGTGCCTCCTGGCACGCCGTCGTCGGCCTCACACTC (5mC at 9 15 29 35): 3210 a.u.
GAGGCCGGATGACGCGAGCCTCCTGGCTCGCGTCATCCGGCCTCACACTC (5mC at 15): 10500 a.u.
GAGGCCGGATGACGACAGCCTCCTGGCTGTCGTCATCCGGCCTCACACTC: 6330 a.u.

Series 2
Target: Sal-like protein 4, full length isoform B (SALL4, Homo sapiens, UniProt Q9UJQ4-2, residues 1-616)
Method: universal PBM
Molecule type: double-stranded DNA, one strand shown
Sample: in vitro
Tested at: not given
Setting: 8-mer, flanks averaged, mean of replicates
Direction: higher = stronger binding
Measurement: E-score
Construct (chain): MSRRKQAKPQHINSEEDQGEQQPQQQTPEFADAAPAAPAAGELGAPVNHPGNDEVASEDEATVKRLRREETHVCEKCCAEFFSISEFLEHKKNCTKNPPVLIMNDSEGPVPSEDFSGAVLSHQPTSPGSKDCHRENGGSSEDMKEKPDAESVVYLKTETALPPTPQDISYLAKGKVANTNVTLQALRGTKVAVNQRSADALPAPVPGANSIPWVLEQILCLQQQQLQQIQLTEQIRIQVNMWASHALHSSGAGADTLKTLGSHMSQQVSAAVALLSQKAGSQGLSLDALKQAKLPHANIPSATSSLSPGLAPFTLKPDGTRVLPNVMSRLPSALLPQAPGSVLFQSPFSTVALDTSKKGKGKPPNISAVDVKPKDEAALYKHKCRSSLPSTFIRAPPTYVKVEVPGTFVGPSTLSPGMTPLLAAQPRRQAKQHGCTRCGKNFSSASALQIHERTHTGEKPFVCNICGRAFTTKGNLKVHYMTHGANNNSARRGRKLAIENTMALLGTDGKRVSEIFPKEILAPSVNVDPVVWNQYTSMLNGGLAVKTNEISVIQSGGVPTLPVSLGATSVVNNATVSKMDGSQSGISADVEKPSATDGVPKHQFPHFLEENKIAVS
AATCCGGT: -0.194
ACGTGTAG: -0.0236
GGCAGAGA: -0.146
CAGAGTTA: -0.0234
ATGGCTTG: -0.0807
CTTCCAAA: 0.178
TAAGGCTA: 0.111
GCTCATAA: 0.157
AGACAGGA: 0.153
ACAATCTG: 0.0997
ATAGAAGC: 0.127
GGATGGCC: -0.275
CACAGGTC: -0.199
CGCCGCCA: -0.359
CGTGCTAC: -0.179
GCGCCTCA: -0.282

Series 3
Target: Histone acetyltransferase KAT6A, winged helix 2, GST fusion (KAT6A, Homo sapiens, UniProt Q92794, residues 85-181)
Method: protein binding microarray
Molecule type: double-stranded DNA, one strand shown
Sample: in vitro
Tested at: not given
Setting: 8-mer, flanks averaged, mean of 2 arrays, mostly near background
Baseline: not given
Direction: higher = stronger binding
Measurement: E-score
Construct (chain): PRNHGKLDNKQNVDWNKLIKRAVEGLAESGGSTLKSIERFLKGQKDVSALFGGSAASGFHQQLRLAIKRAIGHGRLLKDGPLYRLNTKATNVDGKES
CATGCCAG: -0.0198
CACAAGGC: -0.0379
ATCGGATA: -0.012
GGCGGACA: 0.196
ATAGCAGC: 0.0359
ACCTTGAT: 0.0209
ATGTTGCA: -0.0932
GGTCGACA: 0.0621
AAGGCATA: 0.0476
ACGCCTTC: -0.077
ATCGCCCG: -0.0103
AAGACCGG: -0.0973
ACATCTCA: -0.102
CCGGATAA: 0.0999
CCTATTTC: 0.0205
CCGCTCTC: 0.0225
ACCACGAG: -0.0941
CGACTCAA: -0.104

Series 4
Target: RING finger protein unkempt homolog, zinc fingers 1-6, SBP tag (UNK, Homo sapiens, UniProt Q9C0B0, residues 30-357)
Sequence of UniProt Q9C0B0 (30-357, looked up): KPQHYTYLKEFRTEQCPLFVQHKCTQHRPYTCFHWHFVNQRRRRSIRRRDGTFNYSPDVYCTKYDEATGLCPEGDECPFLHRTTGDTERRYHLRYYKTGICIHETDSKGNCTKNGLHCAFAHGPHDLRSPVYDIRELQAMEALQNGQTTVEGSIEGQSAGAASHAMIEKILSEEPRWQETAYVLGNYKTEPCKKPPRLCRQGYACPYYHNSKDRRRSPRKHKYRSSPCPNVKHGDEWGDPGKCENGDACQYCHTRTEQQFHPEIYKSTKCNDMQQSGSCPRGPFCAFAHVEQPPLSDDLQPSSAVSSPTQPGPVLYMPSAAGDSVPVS
Method: RNA Bind-n-Seq
Molecule type: RNA
Sample: in vitro
Tested at: 100 nM
Setting: RNA with constant flanks, vertebrate orthologous sites, ends assumed
Baseline: input RNA pool
Direction: higher = stronger binding
Measurement: bound/input enrichment
Constant ends, left off below: GGGAGUUCUACAGUCCGACGAUC … CAACAGAGGAUUGAGCAUCA
AACUCUUGCAGUCUUAGAUGUUAUAAAAAUAUAUAUAUAUCUCUGAAUUGUAAGAGUUGUUAGCACAGUUUUUUUGUUUGUUUUUAAACACUUGUUUUGGGUACAAGGCAUUUCUGAAAU: 0.471 ratio
GUUGUGAUCCCUUUAACAUCCACAGAAAGCUGUCAAAGAAAAACUUGCGAGCCAUUGACUUGGACGAUGCAGCUUUCCUGAGUGCCAAGUUUGGAAGGCAGUUUGUUCCUGGUUGGAAGC: 0.275 ratio
CUCUAUGGGCCUCGCAGAGUUGAAAUAAUGGAAGAGGAAAGUGAAUAGUAGUCUUCAUUUUAGUAUUUAUGCUUAGGUGUGAAAAUAAAUGUUAUUUGUUGAUCAUUUCUAUAAUCCAGA: 0.715 ratio
AGGACUAAUUUGAUGAUUUUUAAUUUCUUUUCCUGGUUUUUAAAGCCCUCUUUUUUUAGGCAUAUAUAGUAACAUUAGCAGAAAGAUUUAAUUUGGACAACUUUGAUUCUGAUUCUUAAA: 0.881 ratio
GAUUUGGACCUUGGAGCUGAACCAGGGAGCUAGCGAAAGUAACGCAGACUUGUAAAGUUAUAGCUAUAUGCAGCUGCACAACACAGUUCUACCACUAGCAGCUGUGUUAAAGUAUAUAAA: 0.273 ratio
UCUCCUUUCUUUUCCCUUCCUUUUUUUCCUUUUUGGGGGGUACAGUUUGCUCUCUCCCAAUAGUGAUCGUAACAAACUGAUCUGUUCUGGGUGUUGCUCUAGUGACAUGCGAUUCUAUAG: 1.1 ratio
UUUGCACAUGACAGUGUUGCAUGGAGGAUCUUCUGAGGAAGAAAGAGGAGAGGGGUGCUGUAGCAGUGGUGCCUGGGAGCCUGGCCUCCAGUGUCCCACCCGCCUCACCACCCUACUUGG: 0.4 ratio
AUCUCUUAUUUUGUAUACCCAAAAAUGACCUUGAAUUUUUAAACAAUUGAUAGUUUUAACUAGCUCAACCCUCAUAAAGUAUUACUGUAGCUCACUAUAAACAGAUAUCUGUCUGAAUUA: 1.04 ratio
UCAGUCCCCUGGGCUGGGACAGAUUUUUUUUAACGUCUUGAAACUUAAAUUCUGUGCUUGUAGGAGACUGUAACCUUUUUGUCUUUUUUUUUUUACACGAAACAACUUCCACCUCCAGUG: 0.388 ratio
UUUAAAAUGUAUUUAAUCACACUCACUGACCUCAUUUCUGAGUCCCUCCUGUCACUGAACGCAACUCUCCUUUUCACGAUUGCAGUUGGAAGCCUAUGAGUUCAUAGGCGGCCAAGUCAG: 0.411 ratio
UUCAUAAUCACGCUAAUUGUAAUCUGGAGACGUGUAACAUUGUGUAGCCUUUUGUAUAAAUAGACAGAUAGAAAUGGUCCGAUUAGUUUCCUUUUUAAUAUGCUUAAAAUAAGCAGGUGG: 1.8 ratio

Series 5
Target: Interferon regulatory factor 7, full length, phosphomimetic (IRF7, Homo sapiens, UniProt Q92985, residues 1-503, S471D/S472D/S475D/S476D/S477D/S483D/S484D/S487D)
Sequence of UniProt Q92985 (whole entry, unmodified, looked up): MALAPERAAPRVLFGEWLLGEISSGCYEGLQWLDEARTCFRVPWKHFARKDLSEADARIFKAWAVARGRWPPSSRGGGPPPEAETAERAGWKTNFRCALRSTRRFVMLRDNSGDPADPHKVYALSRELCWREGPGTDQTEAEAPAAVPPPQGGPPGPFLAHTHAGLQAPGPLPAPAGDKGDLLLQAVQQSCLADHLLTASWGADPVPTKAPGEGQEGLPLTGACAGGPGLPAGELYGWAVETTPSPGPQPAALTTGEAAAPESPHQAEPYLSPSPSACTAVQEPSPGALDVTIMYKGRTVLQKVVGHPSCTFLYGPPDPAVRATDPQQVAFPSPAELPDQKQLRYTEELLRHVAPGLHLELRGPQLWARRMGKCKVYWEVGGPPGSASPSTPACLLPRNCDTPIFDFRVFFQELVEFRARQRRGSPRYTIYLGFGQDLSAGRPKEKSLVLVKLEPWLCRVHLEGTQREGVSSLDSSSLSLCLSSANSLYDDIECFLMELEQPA
Method: protein-binding microarray
Molecule type: double-stranded DNA, one strand shown
Sample: in vitro
Tested at: 2200 nM top
Setting: 60-bp whole probe
Together with: salmon DNA 0.4 mg/ml
Baseline: random background probes
Direction: higher = stronger binding
Measurement: fitted relative affinity
Constant ends, left off below: GCCTAGCAC … GTCTTGATTCGCTTGACGCTGCTG
TACGGACTGCTTCTCCTGACGTGCTAG: 0.759 z-score
TTAGATTTCAGTTCCGACTAGTGCTAG: 1.59 z-score
GACGGTCTCGGACTGGGGCCGTGCTAG: -0.766 z-score
TCAGGTCTCGGTCTCGGTTAGTGCTAG: 1.12 z-score
CACGGTTTCGGGTATCGGGACGTGCTA: 6.09 z-score
TCACCTTGAACTTTGGCACTGTGCTAG: 0.833 z-score
ACATTCCATGAGCCCACTGGGTGCTAG: 0.795 z-score
TTATGTATCGACTATCGGTTAGTGCTA: 1.07 z-score
GAGGGTATCCTTCTCCTGACGTGCTAG: 0.145 z-score
TTAGGTTTCGATCTCGGTTAGTGCTAG: 6 z-score
TATAAATTATCTTTAATCCTGTGCTAG: -0.158 z-score
ATAGATTTCGGGACTGGATTAGTGCTA: 1 z-score
TACGGTTTCGACTATCGGGACGTGCTA: 3.92 z-score
TTCGAACTGGGGTATCGATTAGTGCTA: 0.345 z-score
TTAGTTCTCCTTTTCCTTTAGTGCTAG: 3.12 z-score
TAGTATTTTTTTCCAGAGGGGTGCTAG: 0.405 z-score
GACGGACTGGGACTGGAGACGTGCTAG: -0.671 z-score

For quick reference, copied from above (series 5):
TACGGACTGCTTCTCCTGACGTGCTAG: 0.759 z-score
TTAGATTTCAGTTCCGACTAGTGCTAG: 1.59 z-score
GACGGTCTCGGACTGGGGCCGTGCTAG: -0.766 z-score
TCAGGTCTCGGTCTCGGTTAGTGCTAG: 1.12 z-score
CACGGTTTCGGGTATCGGGACGTGCTA: 6.09 z-score
TCACCTTGAACTTTGGCACTGTGCTAG: 0.833 z-score
ACATTCCATGAGCCCACTGGGTGCTAG: 0.795 z-score
TTATGTATCGACTATCGGTTAGTGCTA: 1.07 z-score
